Experimental data collected from several papers.
Parts stem from different laboratories: compare values within a part only. Substitutions count along the parent as printed.

Study 1 — technique: protein binding microarray; form: double-stranded DNA, one strand shown; matrix: in vitro; tested at: not given; reference: not given; reading: higher = stronger binding
Target: Histone acetyltransferase KAT6A, winged helix 1, GST fusion (KAT6A, Homo sapiens, UniProt Q92794, residues 1-85)
Notes: 8-mer, flanks averaged, mean of 2 arrays, mostly near background
Residues (chain): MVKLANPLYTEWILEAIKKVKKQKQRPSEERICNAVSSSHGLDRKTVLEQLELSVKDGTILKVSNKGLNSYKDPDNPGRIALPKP
Sequence	E-score
GGATATCC	-0.156
CAGTGGAG	-0.153
AATCAGAT	-0.223
AGTCCTAA	-0.0445
ATTCCGAA	0.0433
CTGTCGCC	0.214
TAACCAGA	-0.149
CCGCCCTC	0.33
GCCTAGGC	0.0611
GATAGAAA	-0.0944
AACGAAAT	-0.0758
GGGCGTGA	0.219
AGGTGGTC	-0.12
ATAATCGC	0.103

Study 2 — technique: RNA Bind-n-Seq; form: RNA; matrix: in vitro; tested at: not given; reference: input RNA pool; reading: higher = stronger binding
Target: RING finger protein unkempt homolog, zinc fingers 1-6, GST-SBP tag (UNK, Homo sapiens, UniProt Q9C0B0, residues 30-357)
Notes: RNA with constant flanks, human and mouse sites, ends assumed
All sequences stand within: GGGAGUUCUACAGUCCGACGAUC … CAACAGAGGAUUGAGCAUCA
Residues (chain): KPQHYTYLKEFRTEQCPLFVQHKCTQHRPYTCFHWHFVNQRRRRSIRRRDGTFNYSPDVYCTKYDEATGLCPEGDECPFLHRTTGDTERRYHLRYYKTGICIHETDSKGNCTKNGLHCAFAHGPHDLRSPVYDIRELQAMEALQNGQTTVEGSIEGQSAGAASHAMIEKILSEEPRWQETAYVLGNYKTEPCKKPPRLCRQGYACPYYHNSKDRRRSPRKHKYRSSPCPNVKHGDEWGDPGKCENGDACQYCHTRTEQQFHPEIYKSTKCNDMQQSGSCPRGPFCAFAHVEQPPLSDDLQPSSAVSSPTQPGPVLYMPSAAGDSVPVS
Sequence	bound/input enrichment [ratio]
CUUUGUAUAUAUUUUUUUGUGUACAUGCACACAUCUCGAAAUCCAUUUCCGUGUUUAAUGUUAGUUGUUUAUGUGUUAGUAUUCCUGUGUCUACUGUUUUGUUGUUGUUAAUAUGGGUAA	5.78
CUUAGACAGCUCGUUGAUCUUUUAACCCCUAAGAUCCAUCAGGAAGUAGAAGAACAGAAACUACAUAAAGCAGCUUGCUUGAUUCAAGCCUAUUGGAAAGGUUUCCAGACCAGAAAGAGA	0.207
CAACUGGUGCAGCGCUGCCAGCAGGCAUACAUGCAGUACAUCCACCACCGCUUGAUUCACCUGACUCCUGCGGACUACGACGACUUUGUGAAUGCGAUCCGGAGUGCCCGCAGCGCCUUC	0.0673
ACCCAGGCACCAUCCUCUAACAGGCCAAUUGUUCCUGUACCAGGCCCAUUUCCUCUUCUCUUACAUCUUCCUAAUGGACAAACCAUGCCCGUUGCUAUUCCUGCAUCAAUUACAAGUUCU	0.303
CAGCGUUGCCUCCCUGUCCUGGGCAGGGGCCACUUGUUAUUUUAUUUAUUUUUAAUUUAUAAUUUAUUCAAAUUGGAUUGCCUUGGUAACCUCCCACACCUGAUAAUUGGCAUCACUCCU	1.47
GCCAAUAUCAAACGAGAACAGGGAAACAUUGAAGAGGCAGUUCGCUUGUAUCGUAAAGCAUUAGAAGUCUUCCCAGAGUUUGCUGCUGCCCAUUCAAAUUUAGCAAGUGUACUGCAGCAG	1.14
UAAUUUAUUUGUAUCAAUCCCCGCUUUAUAUUAAACGGCAACAAAAAAGCACAGAAAAUUUAGCACUUUAAUAAUUUUGACAUUAUUGUACAGCUCUUAAGUAUUUUCAAGACAGCACUA	9.95
UUUUCAGUAAGACUUUCAGGCACUUCUUCCCUUUUGAUUUCUUUUUUUUCCUCUGUUUUUUAGCAUGCAAGUAUGUUGGUACGUUAUGUCCUGGUUUAAAAAGGAUUAAAAUUUUAAAAU	0.709

Study 3 — technique: protein-binding microarray; form: double-stranded DNA, one strand shown; matrix: in vitro; tested at: 2540 nM top; notes: 60-bp whole probe; added: salmon DNA 0.4 mg/ml; reference: random background probes; reading: higher = stronger binding; all sequences stand within: GCCTAGCAC … GTCTTGATTCGCTTGACGCTGCTG
Target: Interferon regulatory factor 3, full length, phosphomimetic (IRF3, Homo sapiens, UniProt Q14653, residues 1-427, S386D/S396D/S398D/S402D/T404D/S405D)
Construct (chain): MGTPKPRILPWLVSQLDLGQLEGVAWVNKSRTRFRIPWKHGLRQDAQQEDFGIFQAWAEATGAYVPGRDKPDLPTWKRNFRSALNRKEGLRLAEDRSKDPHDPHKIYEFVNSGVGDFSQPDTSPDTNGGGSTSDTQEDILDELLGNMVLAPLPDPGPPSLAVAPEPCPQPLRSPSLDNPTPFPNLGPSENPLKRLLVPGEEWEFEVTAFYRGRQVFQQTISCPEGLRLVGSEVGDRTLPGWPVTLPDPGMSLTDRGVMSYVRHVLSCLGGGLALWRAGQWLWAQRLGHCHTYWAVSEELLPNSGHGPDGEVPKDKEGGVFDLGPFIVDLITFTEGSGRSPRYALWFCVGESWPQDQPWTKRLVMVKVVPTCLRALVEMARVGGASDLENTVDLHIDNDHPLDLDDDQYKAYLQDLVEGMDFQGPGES
Sequence	fitted relative affinity
TCAGCTGTTTTTCTCACACTGTGCTAG	0.906 z-score
GACGGTATCGGTTTCAGGACGTGCTAG	6.16 z-score
TTAGGACTGGGGTTTCAGTTAGTGCTA	-0.0791 z-score
GACGGTATCCTTCTCCTGTCGTGCTAG	7.86 z-score
GACGGTATCGGCCTGGGGACGTGCTAG	0.597 z-score
GACGATATCGGGTTTTGAGACGTGCTA	0.24 z-score
GTCAGGGGTCTTGCTCTGTAGTGCTAG	-1.28 z-score
TTAGAACTGGGGTACCGATTAGTGCTA	0.493 z-score
GACGGTATACTTCTCCTGACGTGCTAG	0.948 z-score
TCACCATTTTTTTTCACACTGTGCTAG	1.24 z-score
TTAGATTTCACACTGGATTAGTGCTAG	0.785 z-score
GATGGTTCCCTTTTCCTGACGTGCTAG	6.47 z-score
TTAGGAATCCTTTTCCTTTAGTGCTAG	5.38 z-score
GGATGTTGCAAATATTGCTAGGTGCTA	0.068 z-score

Study 4 — technique: universal PBM; form: double-stranded DNA, one strand shown; matrix: in vitro; tested at: 600 nM; reading: higher = stronger binding
Target: Sal-like protein 4, full length isoform A (SALL4, Homo sapiens, UniProt Q9UJQ4, residues 1-1053)
Sequence of UniProt Q9UJQ4 (whole entry, looked up): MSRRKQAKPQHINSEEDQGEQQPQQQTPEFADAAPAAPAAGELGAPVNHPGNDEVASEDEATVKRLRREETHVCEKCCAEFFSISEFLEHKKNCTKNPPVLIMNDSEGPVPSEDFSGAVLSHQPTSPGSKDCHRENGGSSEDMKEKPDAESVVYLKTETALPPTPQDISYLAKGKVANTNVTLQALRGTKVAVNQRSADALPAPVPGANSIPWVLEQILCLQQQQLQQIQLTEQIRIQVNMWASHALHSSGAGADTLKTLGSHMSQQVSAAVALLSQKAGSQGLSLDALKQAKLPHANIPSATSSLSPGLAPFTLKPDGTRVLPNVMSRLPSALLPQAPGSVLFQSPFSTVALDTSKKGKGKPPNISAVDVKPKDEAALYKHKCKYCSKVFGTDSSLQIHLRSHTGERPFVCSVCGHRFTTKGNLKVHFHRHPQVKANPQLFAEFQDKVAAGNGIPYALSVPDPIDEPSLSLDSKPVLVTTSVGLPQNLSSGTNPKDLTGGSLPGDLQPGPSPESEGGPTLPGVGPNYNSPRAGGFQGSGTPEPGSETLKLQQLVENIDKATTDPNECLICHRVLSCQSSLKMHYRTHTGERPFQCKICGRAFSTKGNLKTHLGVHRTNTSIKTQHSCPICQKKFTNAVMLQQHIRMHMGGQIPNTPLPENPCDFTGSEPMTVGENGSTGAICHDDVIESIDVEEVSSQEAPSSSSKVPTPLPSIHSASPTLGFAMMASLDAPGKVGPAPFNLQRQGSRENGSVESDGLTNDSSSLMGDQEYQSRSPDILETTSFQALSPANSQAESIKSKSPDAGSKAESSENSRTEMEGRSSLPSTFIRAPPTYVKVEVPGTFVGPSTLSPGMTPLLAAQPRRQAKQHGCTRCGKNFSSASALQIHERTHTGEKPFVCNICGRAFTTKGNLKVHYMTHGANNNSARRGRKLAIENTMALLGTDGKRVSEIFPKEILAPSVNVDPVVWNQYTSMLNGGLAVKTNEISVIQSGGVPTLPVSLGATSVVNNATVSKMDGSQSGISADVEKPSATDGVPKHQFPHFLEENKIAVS
Notes: 8-mer, flanks averaged, mean of replicates
Sequence	E-score
ATCGGCTG	-0.13
AACGTCCA	0.0151
AGAGAATC	-0.0362
AAGAGCGA	-0.144
CTCAAGCA	0.062
AACTGCCC	-0.166
CATCCGGG	-0.32
CTAAATGA	0.144
CGAGGGAG	-0.162
CCCCGACA	-0.109
TTATCAAA	0.277
AATAATAG	0.348
CTAACTCA	0.0159

Study 5 — technique: DHFR PCA, dose-response; matrix: yeast; notes: Hill fit, mean, not affinity; added: (+)-ABA, dose series; reading: lower = more sensitive
Target: ABI1, truncated, D143A, DHFR fusion (Arabidopsis thaliana, UniProt P49597)
Starting sequence: PYL1, truncated, DHFR fusion (Arabidopsis thaliana, UniProt Q8VZS8); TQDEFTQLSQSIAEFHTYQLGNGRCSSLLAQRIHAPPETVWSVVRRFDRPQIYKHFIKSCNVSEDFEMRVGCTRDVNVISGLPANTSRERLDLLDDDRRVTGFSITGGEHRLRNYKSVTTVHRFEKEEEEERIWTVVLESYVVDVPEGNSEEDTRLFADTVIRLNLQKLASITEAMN
Variant	ABA EC50 [µM]
E152G	4.94
G23M	8.05
R163V	90.6
E131I	4.13
D159G	28.5
T1Y	3.7
L8R	64.3
R46M	7.34
S80A	118
I105L	239
G21S	2.69
R49I	18.2
D159R	252
H34T	9.01
G148V	132
S150M	57.7
D92Q	134

Study 6 — technique: RNA Bind-n-Seq; form: RNA; matrix: in vitro; tested at: 365 nM; reference: no-protein control; reading: higher = stronger binding
Target: RNA binding protein fox-1 homolog 2, RRM domain, GST-SBP tag (RBFOX2, Homo sapiens, UniProt O43251-10, residues 100-194)
Notes: natural RNA segment, single round, ends assumed
All sequences stand within: GGGAGUUCUACAGUCCGACGAUC … UGGAAUUCUCGGGUGCCAA
Residues (chain): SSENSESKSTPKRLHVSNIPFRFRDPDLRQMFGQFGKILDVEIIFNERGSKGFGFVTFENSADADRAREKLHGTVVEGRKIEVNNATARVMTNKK
Sequence	RBNS enrichment (R)
GCAGUCAGUUUCUGGUCCUUAGAUGUAUUCUAAGCAGUGUAAGUGUCUGAUUGUACCCUGGUGGCAUGAUCAGUUGUCUUGUAGCUGUCCCCCGCUCCAUAGUUUACAAU	0.344
CACCGAGGCCAAAGGCUGCCUCAGCCUUCCCAGCCCAUCCACUCAGCUGUUACCACCCUCUCAGCCUGACGAGACUUAGGCUUCUUAAGAUGUCCUUCCAGCUUGUCAGA	0.265
UUGUUGACUUAAAUUUAAUUCAAGGAUUGAAAAAUUAACUGGAUAUCUUGAAAUAUACAGUAAUGAUUGUCCUUAGACUCUUGAACUUUACCAUCUUUCCUAUUCAUAUA	0.389
GUUUCUCCAGUGGCUUAGCUCCUGUUCCUUUGGGUGAUCACUAGCACCCAUUUUUGAGAAAGCUGGUUCUACAUGGGGGGAUAGCUGUGGAAUAGAUAAUUUGCUGCAUG	9.87
CCAAUAAAACCUUUAGAUUCUGGUGAAGCCAGAGCCUCUCCACAGUGGCUAAGGUUGUUGUUGAUCUUUUUCUCCUUUGUGUGAUCAUCACAGAUGCCAUUUCUGUUUUA	0.32
UUUAAGGUAUUUAAAGUAUUUUCUUCUCUGUGAGAAGGUUUAUUGUUAAUACAAGGUAUAAUAAAAUUAUCGCAACCCCUCUCCUUCCAGUAUAACCAGCUGAAGUUGCA	1.53
AGUUGUGGGUUUGUAGGUGCGAGUUUGAAGAGGAAAAGAGGAAGGGGGUUAUAUUUCUAAGUGAUUUACAAUUUCUGUUUCUAAAAUUGUUGGGAUUUAGAAAUGUUUCA	0.944
GUGAAGAGGGCCAGGACAGAUUGGACAGCUUAUUUCUCUAUAGCAAGUAAAAGCGUUAUGUUACAGUAAUUAACAGACCUACUGGGCCCAGGGGAAAAAAAGAAAUGAAU	0.662
AGCCUUGCCGUGUGCUGCUUCUCAUCACUGCACACAAGUGCCAUGCUUUGCCACCACCACCAAGCACAUCUGUGAUCCUGAAGGGCGGCCGUUAGUCAUUACUGCUGAGU	0.463
ACACAGCUAUCAUAGAAAAGAAACUUGCCUCAUGUAAACUGGAUUGAGAAAUUCUCAGUGAUUCUGCAAUGGAUUUUUUUUUAAUGCAGAAGUAAUGUAUACUCUAGUAU	0.562

Some of these lines once more (study 4):
Sequence	E-score
AACGTCCA	0.0151
CTAACTCA	0.0159
AGAGAATC	-0.0362
ATCGGCTG	-0.13
AAGAGCGA	-0.144
CGAGGGAG	-0.162
AATAATAG	0.348
TTATCAAA	0.277
CCCCGACA	-0.109
